Measurements pooled from the literature.
Numbered parts are unrelated; each lists some results of a single study. Positions count from the first letter of the parent shown.

Set 1
Molecule: PhoQ, residues 284 288 289 292 302 303 SSYNSA
Method: Sort-seq
Refers to: YFP reporter
Matrix: E. coli
Notes: PhoQ-PhoP variant library
Added: 10 µM Mg2+
Baseline: high Mg2+ state
Direction: higher = stronger signaling
| target | fold induction |
| --- | --- |
| PhoP, residues 12 14 15 18 19 VHTVL (Escherichia coli, UniProt P23836) | 15.8 |
| PhoP, residues 12 14 15 18 19 ICWRQ (Escherichia coli, UniProt P23836) | 1.48 |
| PhoP, residues 12 14 15 18 19 TQCLL (Escherichia coli, UniProt P23836) | 1.83 |

Set 2
Target: Sal-like protein 4, full length isoform B (SALL4, Homo sapiens, UniProt Q9UJQ4-2, residues 1-616)
Method: universal PBM
Form: double-stranded DNA, one strand shown
Matrix: in vitro
Tested at: not given
Notes: 8-mer, flanks averaged, mean of replicates
Direction: higher = stronger binding
Residues (chain): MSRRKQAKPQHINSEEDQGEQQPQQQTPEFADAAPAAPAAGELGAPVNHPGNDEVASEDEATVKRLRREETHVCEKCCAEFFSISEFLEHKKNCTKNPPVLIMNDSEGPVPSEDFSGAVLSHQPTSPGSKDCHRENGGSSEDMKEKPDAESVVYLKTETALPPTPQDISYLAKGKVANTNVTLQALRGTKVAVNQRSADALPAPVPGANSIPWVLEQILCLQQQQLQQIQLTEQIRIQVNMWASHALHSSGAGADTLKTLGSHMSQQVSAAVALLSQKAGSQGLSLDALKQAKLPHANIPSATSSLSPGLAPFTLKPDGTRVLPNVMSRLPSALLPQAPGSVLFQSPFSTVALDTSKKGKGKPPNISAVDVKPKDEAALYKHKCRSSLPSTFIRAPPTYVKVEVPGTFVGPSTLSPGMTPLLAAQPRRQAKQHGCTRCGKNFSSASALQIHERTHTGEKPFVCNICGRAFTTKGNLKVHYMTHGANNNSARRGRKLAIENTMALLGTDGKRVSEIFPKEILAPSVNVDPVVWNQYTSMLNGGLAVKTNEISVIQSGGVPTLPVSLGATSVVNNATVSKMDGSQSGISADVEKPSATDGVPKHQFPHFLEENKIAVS
| Strand | E-score |
| --- | --- |
| GAATGTGC | 0.0358 |
| GAATTAAC | 0.131 |
| ACATCACT | 0.186 |
| ATTGGTTA | 0.196 |
| ACGTTTTA | 0.233 |
| GAAAACGC | 0.0227 |
| GGGTAACC | -0.265 |
| AACTAGTT | 0.242 |
| CCAATATC | 0.148 |
| ATAGGTTC | 0.179 |
| AAAGAGTC | -0.108 |
| CGATGTGA | 0.0008 |
| CGTGTTCA | 0.017 |
| AGCATTCC | -0.0882 |
| CGATACCC | -0.151 |
| ACAAAGGC | -0.0899 |
| CACGGATA | 0.0928 |

Set 3
Target: RNA binding protein fox-1 homolog 2, RRM domain, GST-SBP tag (RBFOX2, Homo sapiens, UniProt O43251-10, residues 100-194)
Method: RNA Bind-n-Seq
Form: RNA
Matrix: in vitro
Tested at: 365 nM
Notes: natural RNA segment, single round, ends assumed
Baseline: no-protein control
Direction: higher = stronger binding
Shared flanks, not repeated: GGGAGUUCUACAGUCCGACGAUC … UGGAAUUCUCGGGUGCCAA
Construct (chain): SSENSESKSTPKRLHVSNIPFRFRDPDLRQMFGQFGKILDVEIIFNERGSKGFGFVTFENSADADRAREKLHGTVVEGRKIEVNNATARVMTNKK
| Strand | RBNS enrichment (R) |
| --- | --- |
| UGUCAUCCUUUGUGACAUUGUUACCCUGAGGUAUACUCCCUGCAGUGAGCUGGUCUUCCUGAAGUGGGCCUGCUUUGCACUAUAGGCUGCUUGUAUGUUUGGUUUGUUGU | 25.6 |
| GCCAAAUACACUGUGCAUAUCUGCAAUUUAAUCUUUGAAUGUAUGUUACUGGAUUAGCUCCCUCCUCCUGUGUGAUGGUACCAUGCAUAGAGUCAAUCAAAUCCUUGUGA | 1.01 |
| UCUAUUUGAGUCUGGAAAUAACUAAUGUGUUUGAUAAUUAGUUUAGUUUGUGGCUUCAUGGAAACUCCCUGUAAACUAAAAGCUUCAGGGUUAUGUCUAUGUUCAUUCUA | 0.752 |
| UGGGUCCUGGAUCCUUCCCCCCUUCUCACCAUAACCCCCUCUCAGUGUUUCCCCAACUUCUCCCUUUUAGCAGGGUCCCUUUAGAGCCCAACUCCAGGUCAAAUCUGGAG | 0.938 |
| UUAUGAAGAAUGGGUACUUCUGGAUUCCAGGAAAAAUUCUUAUAACUAAAAUCAAUAUGUUUUAAAAGUCACCAUAUAGCUUCUUACUAGUUAUCUUUUAAAGACUGUGG | 0.735 |
| AAUUCAUCACAUAAUCUUAAAUUGGAACUUUGCACGGUUCUUAGUCCAAGUGUGCUCUCCUUUCAUACAGUUUCCAUGGUGUGAGUGCUUUACUGAAGAUCUGUUUCUUU | 0.529 |
| UCCAGACAUCUCUGCUAACAAGCCUUUGGUAAGUCACUUCAGAUACUUUUCCUCCUUUUUACAAAGAGAGGGCUGGCUUAGUUAUUUGCCAAAGCCCCUUCCAGGCCUGA | 0.262 |
| GUGUAUAUGUUGGUUUAAUUAAUAAUAUGUACUAAGAAUGUCCUUAUUCUUGUGGUUAAAAACCUGCCUAAAUUAAAUUGGGCUUCAAUCACUGUAACCUGAUUCAUCCU | 0.26 |
| UGUGUUGAUCCAAAUUUGCAUAGCUGUUUAAUGUUAAGUCAUGACAAUUUAUUUUUCUUGGCAUGCUAUGUAAACUUGAAUUUCCUAUGUAUUUUUAUUGUGGUGUUUUA | 0.84 |
| CCACAGACAUGUUAUUCUUCUGAAAGAGCCACAUUUUGGUUUUAUUUCUUGUCACAUGAUUUCUUUUCUUGAUGGAUGAAAAAUAUGAAAGGAAACUUUUAUAUCUGUUG | 0.497 |
| CCGGGGCCCAGCACGUUGCCCUGGGCCUGUGGCCGGAGUCGGAGUCCUCUCUCCUCCUCCUGGCUUUUGGAAAGGCUUGGCUGUGUUGGGGAGUCUCUCUUAGCCCUUUC | 8.25 |
| AACAUAGAUUGUAUCACCCAUAUAUUCUUGAAUACACUUGUUUGGUUUGGUAUUACUUUGACUAUGUCCACAAUAGCAGCAAUCUUGGCUUUUUGUUAGCCAAAGUGUUC | 0.382 |

Set 4
Target: ABI1, truncated, D143A, DHFR fusion (Arabidopsis thaliana)
Method: DHFR PCA, deep sequencing
Matrix: yeast
Notes: methotrexate growth selection, single substitutions
Added: (+)-ABA 58 µM
Baseline: wild-type fitted maximum
Direction: higher = stronger binding
Parent: PYL1, truncated, DHFR fusion (Arabidopsis thaliana); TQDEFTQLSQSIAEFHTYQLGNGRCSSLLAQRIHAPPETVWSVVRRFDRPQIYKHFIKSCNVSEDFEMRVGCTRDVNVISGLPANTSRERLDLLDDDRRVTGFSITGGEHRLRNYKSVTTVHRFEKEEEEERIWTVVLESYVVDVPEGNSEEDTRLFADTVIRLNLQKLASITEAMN
| Variant | relative binding score [%] |
| --- | --- |
| S171E | 94.4 |
| D159P | -9.83 |
| S59T | 84.6 |
| S59H | 75.7 |
| I172N | 25.1 |
| D153C | 36.9 |
| V136Y | 92.2 |
| D97I | 90.9 |
| V121G | -6.25 |
| F47S | -9.49 |
| C25G | 13.6 |
| I33R | 0.76 |
| W134T | 96.5 |
| R46D | 29.4 |
| I162F | 0.997 |
| V40A | 15.7 |
| W41H | 1.29 |

Set 5
Target: Ras GTPase-activating protein-binding protein 1, full length (G3BP1, Homo sapiens, UniProt Q13283)
Chain of UniProt Q13283 (whole entry, looked up): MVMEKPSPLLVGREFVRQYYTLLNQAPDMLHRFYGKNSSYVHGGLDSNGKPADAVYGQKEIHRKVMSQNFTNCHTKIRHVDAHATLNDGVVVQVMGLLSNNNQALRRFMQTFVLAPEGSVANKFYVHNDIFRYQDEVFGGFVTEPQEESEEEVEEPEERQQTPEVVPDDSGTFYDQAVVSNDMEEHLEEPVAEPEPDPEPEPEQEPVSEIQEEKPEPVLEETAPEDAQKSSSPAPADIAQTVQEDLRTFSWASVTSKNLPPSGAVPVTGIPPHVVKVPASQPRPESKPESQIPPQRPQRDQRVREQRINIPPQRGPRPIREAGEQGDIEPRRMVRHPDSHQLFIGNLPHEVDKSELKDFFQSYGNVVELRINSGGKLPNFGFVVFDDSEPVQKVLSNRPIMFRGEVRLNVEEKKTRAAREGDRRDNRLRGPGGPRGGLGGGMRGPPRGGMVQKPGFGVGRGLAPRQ
Method: RNA Bind-n-Seq
Form: RNA
Matrix: in vitro
Tested at: 200 nM
Notes: whole 134-nt RNA, ends assumed
Added: 150 mM LiCl
Baseline: input library
Direction: higher = stronger binding
Each molecule: 7-deaza-guanosine replaces G
Shared flanks, not repeated: GGGAGUUCUACAGUCCGACGAUC … UGGAAUUCUCGGGUGUCAAGG
| Strand | log2 enrichment |
| --- | --- |
| ACCAUCCAGGUGGGCAUCUUUGGGAAGUGGGGCAAGGGGGGGAUAGGGAGGGGGGUAACACUUUGGGAACAGGUGGUCCCAGGUCGUUUC | 0.445 |
| GCAGGAAGUAAAAACAAAUGGAAAUGCUUCGGAUAGUGGCAGGGGUGGGGGUUGCUAAGGAAAGGGUGGCAUGGGAGUGGGUAAAGAGUU | 0.0321 |
| ACCAUGCAGGUGGGCAUCUUUGGGAAGUGGGGCAAGGGGGGGAUAGGGAGGGGGGUAACACUUUGGGAACAGGUUGUCCCAGGUCGUUUC | 0.299 |
| CCUGUGCUACACAUCGUAUGUACCGAAUCGGGUUUUUUGGGGUUUUUUGGGGUUUUUUGGAAAGUAUUAUGUUACGCCGUUCGGAUCUGC | 1.06 |
| GUCCUGUGCUACACAUCGUAUGUACCGAAUCGGGAAAAAAAGGGUUUUUUUGGGUGGGAAAGUAUUAUGUUACGCCGUUCGGAUCUGCAC | -1.54 |
| AGUCCUGUGCUACACAUCGUAUGUACCGAAUCGGGGAAAAGGGAAAAGGGGAAAAGGAAAGUAUUAUGUUACGCCGUUCGGAUCUGCACU | -0.515 |
| UGUGCUACACAUCGUAUGUACCGAAUCGGGGAAAAAAAGGGGAAAAAAAGGGGAAAAAAAGGAAAGUAUUAUGUUACGCCGUUCGGAUCU | 0.501 |
| CAAGUCCUGUGCUACACAUCGUAUGUACCGAAUCGGGGAAAGGGGAGGGGUGGGGAAAGUAUUAUGUUACGCCGUUCGGAUCUGCACUUC | 0.309 |
| UGGCCCUGGUGGCAUGCGGGGAGGAAGAGGUGGCCUCAUGGAUCGUGGUGGUCCCGGUGGAAUGUUCAGAGGUCGCCGUGGUGGAGACAG | 0.345 |
| AAGUCCUGUGCUACACAUCGUAUGUACCGAAUCGGGGAGGGGUUUUUGGGGAGGGGAAAGUAUUAUGUUACGCCGUUCGGAUCUGCACUU | 0.729 |
| CACAGACAACACGCAGCCACACAGACACAGAGGGAAGGGGUUGGGAUGGGGACAGGGUGCACAGCAGGGCGGGGUAGGACCCCAGCCCCU | 0.701 |

Set 6
Target: CCNB1, cyclin fold, Cln2 fusion (human)
Method: yeast growth competition, sequencing
Matrix: yeast
Notes: weak parent motif
Baseline: not given
Direction: higher = stronger binding
Parent: DOT1L docking peptide (human); SEAKRRIVFTITT
| Variant | normalised enrichment score |
| --- | --- |
| SEAKRRAVFTITT [I7A] | -0.0949 |
| SEAKRRIVATITT [F9A] | 0.373 |
| AEAKRRIVFTITT [S1A] | 0.381 |
| SAAKRRIVFTITT [E2A] | 0.536 |
| SEAKRRIAFTITT [V8A] | 0.0159 |
| SEAKRRIVFTATT [I11A] | -0.0611 |

A few entries again (set 4):
| Variant | relative binding score [%] |
| --- | --- |
| W134T | 96.5 |
| D97I | 90.9 |
| F47S | -9.49 |
| D153C | 36.9 |
| I172N | 25.1 |
